Measured values gathered from unrelated publications.
Parts stem from different laboratories: compare values within a part only.

Block 1
Target: Prothrombin, mature alpha-thrombin (F2, Homo sapiens, UniProt P00734)
Technique: aptamer microarray, sandwich
Molecule type: DNA with 2'F-ANA
Matrix: in vitro
Concentration: 200 nM
Notes: whole 15-mer aptamer, many near background
Together with: Cy3 exosite-II aptamer, 400 nM
Direction: higher = stronger binding
Sequence: GGTTGGTGTGGTTGG
Modification | mean fluorescence intensity
2'F-ANA at 3 9 12 13 14 15 | 592 a.u.
2'F-ANA at 2 3 5 7 9 12 14 | 100 a.u.
2'F-ANA at 1 2 3 7 8 9 10 11 13 15 | 67 a.u.
2'F-ANA at 1 2 7 9 | 187 a.u.
2'F-ANA at 2 3 4 8 10 14 | 182 a.u.

Block 2
Target: Sal-like protein 4, full length isoform B (SALL4, Homo sapiens, UniProt Q9UJQ4-2, residues 1-616)
Technique: universal PBM
Molecule type: double-stranded DNA, one strand shown
Matrix: in vitro
Concentration: not given
Notes: 8-mer, flanks averaged, mean of replicates
Direction: higher = stronger binding
Sequence | E-score
ACCGCTGG | -0.165
GTGAGTTA | 0.0408
CCCCACTA | -0.188
ACCCATAC | 0.14

Block 3
Target: Interferon regulatory factor 7, full length, phosphomimetic (IRF7, Homo sapiens, UniProt Q92985, residues 1-503, S471D/S472D/S475D/S476D/S477D/S483D/S484D/S487D)
Technique: protein-binding microarray
Molecule type: double-stranded DNA, one strand shown
Matrix: in vitro
Concentration: 2200 nM top
Notes: 60-bp whole probe
Together with: salmon DNA 0.4 mg/ml
Reference: random background probes
Direction: higher = stronger binding
Shared flanks, not repeated: GCCTAGCAC … GTCTTGATTCGCTTGACGCTGCTG
Residues (chain): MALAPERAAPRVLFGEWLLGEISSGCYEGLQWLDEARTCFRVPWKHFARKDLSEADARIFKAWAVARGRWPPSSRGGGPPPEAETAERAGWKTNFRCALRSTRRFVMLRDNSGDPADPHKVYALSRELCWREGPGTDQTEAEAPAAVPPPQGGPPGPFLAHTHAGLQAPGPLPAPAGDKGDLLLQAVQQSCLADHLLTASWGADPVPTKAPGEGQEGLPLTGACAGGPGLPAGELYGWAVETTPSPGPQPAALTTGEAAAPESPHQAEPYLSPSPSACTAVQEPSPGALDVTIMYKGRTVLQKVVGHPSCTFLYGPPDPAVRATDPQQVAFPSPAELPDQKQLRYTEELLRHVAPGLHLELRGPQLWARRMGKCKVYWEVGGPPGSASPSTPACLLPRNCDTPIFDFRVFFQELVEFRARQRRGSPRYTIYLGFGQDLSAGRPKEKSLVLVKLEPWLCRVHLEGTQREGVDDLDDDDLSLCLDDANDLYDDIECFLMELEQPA
Sequence | fitted relative affinity
TCATTTTTTTTTTTTGTACTGTGCTAG | 2.34 z-score
TTAGGACTGGTTCTCCTTTAGTGCTAG | 0.528 z-score
TTAGGACTGGGGACTTGGTTAGTGCTA | -0.875 z-score
TCTTTTATTTTTTTTATTTAGTGCTAG | 1.76 z-score
GACGGTTTCGACACTGGGGCCGTGCTA | 2.31 z-score

Other studies, line by line
Molecule | target | test | test system | conditions | how to read | endpoint | value
PhoQ, residues 284 288 289 292 302 303 TVTVVA | PhoP, residues 12 14 15 18 19 QWHVF (Escherichia coli, UniProt P23836) | Sort-seq, measured: YFP reporter | E. coli | PhoQ-PhoP variant library, together with: 10 µM Mg2+ | reference: high Mg2+ state, higher = stronger signaling | fold induction | 6.61

A few entries again (block 1):
Modification | mean fluorescence intensity
2'F-ANA at 1 2 7 9 | 187 a.u.
